Published values collected from several papers.
A part holds a random share of what one study measured.

Set 1
Target: RING finger protein unkempt homolog, zinc fingers 1-6, GST-SBP tag (UNK, Homo sapiens, UniProt Q9C0B0, residues 30-357)
UniProt Q9C0B0, sequence (30-357, looked up): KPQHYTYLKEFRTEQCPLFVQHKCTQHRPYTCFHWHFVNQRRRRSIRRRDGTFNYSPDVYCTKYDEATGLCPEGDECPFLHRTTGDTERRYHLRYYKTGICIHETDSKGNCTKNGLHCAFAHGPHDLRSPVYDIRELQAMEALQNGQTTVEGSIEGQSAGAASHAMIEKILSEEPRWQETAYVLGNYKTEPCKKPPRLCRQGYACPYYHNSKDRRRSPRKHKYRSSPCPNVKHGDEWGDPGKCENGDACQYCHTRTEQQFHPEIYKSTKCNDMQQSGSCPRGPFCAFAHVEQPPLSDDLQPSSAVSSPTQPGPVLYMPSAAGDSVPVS
Method: RNA Bind-n-Seq
Molecule type: RNA
Sample: in vitro
Concentration: not given
Setting: RNA with constant flanks, human and mouse sites, ends assumed
Reference: input RNA pool
Reading: higher = stronger binding
Constant ends, left off below: GGGAGUUCUACAGUCCGACGAUC … CAACAGAGGAUUGAGCAUCA
The bound/input enrichment of `UAUCUUAUAUCACCUCUAGAUUUUGUACCUGAAGCCUUGUUUGGAAUUCUAGGCUUUCUAGAUGAUUUCUUUGUCAUCUUUUUAUUGCUUAUCUACAUCUCUAUUAUGUAUCGAGAAGUG` is reported as 1.41 ratio.
The bound/input enrichment of `GUCAACAUAGAGUGCGUGGAGUGCUGCGGCAGGGACCUCUACGUGGGCACCAACGACUGCUUCGUCUACCACUUCCUGUUGGAGGAGAGGCCAGUGCCUGCUGGGCCAGCCACGUUCACU` is reported as 0.192 ratio.
`UUUUCUAAGUUCCAGAAUAAUAGUGUCAUUAUUAUAGACUAUAUGUUUUGAAGUUUGAUAUUAUAAUGGGAUAUUCAUUUUUUGUUCUUUUCUUGACUCCUUUCUCAAGUGUGUGAUAAG` gave a bound/input enrichment of 0.413 ratio.
`GGUGCAAAAAGGCAGAAGGCCAGGUUGACAGUGUUUUGUCUUGUCCCUCCGUGUUUUCUAGAAUGUUUUACACCUGGCUGGUGAAUCUGCUGAGACCAGGUUUUCUGAGACUUGAUUAAA` gave a bound/input enrichment of 0.261 ratio.
For `CCUGAAUUCUUGGUCUAUUUUCCAUUGCUAACUGAAAUGGCAAAGAAGUAUAAUAUGAAACUAAUCUACAAAAAAACAUUUUUGGAAUUCUAUGAAGAAAAGAUUAAAAACAAUGAAAAC`, the bound/input enrichment was 0.286 ratio.
With `UCUUUUCAUCUAUCAGAAAGUGUUCUUUUGUGGAGAAAAAAGAAGAAAACUUUCUCACUUACUUAUUAAUUUCUCAUUUACUAAUAAAUUUCAAUAAACUUUCUUACUGAUGCAAACUAU` the bound/input enrichment was 24.5 ratio.
The bound/input enrichment of `GUCAAUCACUUUGACAAGUCUCCUGGAAGGAACAGCCAGCGGGAGUUGAAACCUUUUUCCAUUUGGUCUCGUGGCAAAGGCAGAGAUUGCUCCAGCAGCUCCACACAAUAUGACGUGUUC` is reported as 0.234 ratio.
`AAUGCAGUAGAAGCCAUCCACAGAGCUGUGGAAUUUAAUCCACACGUGCCAAAAUAUCUACUAGAAAUGAAAAGCUUAAUCCUCCCACCAGAACACAUCCUGAAGAGAGGAGACAGUGAA` has a bound/input enrichment of 1.55 ratio.

Set 2
Target: Prothrombin, mature alpha-thrombin (F2, Homo sapiens, UniProt P00734)
Method: aptamer microarray, sandwich
Molecule type: DNA with 2'F-ANA
Sample: in vitro
Concentration: 200 nM
Setting: whole 15-mer aptamer, many near background
Together with: Cy3 exosite-II aptamer, 400 nM
Reading: higher = stronger binding
Sequence: GGTTGGTGTGGTTGG
`2'F-ANA at 1 2 3 7 8 11 12 14` — result for “mean fluorescence intensity”: 101 a.u.
`2'F-ANA at 1 2 3 7 8 9 10 11 14 15`: “mean fluorescence intensity” 55.2 a.u.
`2'F-ANA at 1 5 7 8 10 11 15` — result for “mean fluorescence intensity”: 44.7 a.u.
`2'F-ANA at 1 2 3 4 5 13 14 15` — result for “mean fluorescence intensity”: 43.6 a.u.
`2'F-ANA at 3 4 5 6 8 11 12 13`: “mean fluorescence intensity” 223 a.u.
For `2'F-ANA at 3 4 7 8 12 14`, “mean fluorescence intensity” read 526 a.u.
Under “mean fluorescence intensity”, `2'F-ANA at 1 4 5 7 8 10 13` is recorded as 56.4 a.u.
For `2'F-ANA at 1 4 7 9 11 13`, “mean fluorescence intensity” read 71.8 a.u.
Under “mean fluorescence intensity”, `2'F-ANA at 2 3 4 6 7 9 12` is recorded as 656 a.u.
For `2'F-ANA at 1 3 4 8 11 14 15`, “mean fluorescence intensity” read 72.9 a.u.
`2'F-ANA at 3 6 8 10 13` — result for “mean fluorescence intensity”: 468 a.u.
For `2'F-ANA at 1 2 3 4 5 6 9 12 14 15`, “mean fluorescence intensity” read 53.1 a.u.
`2'F-ANA at 1 2 3 4 5 9 11 12` — result for “mean fluorescence intensity”: 97.5 a.u.
For `2'F-ANA at 2 3 8 9 13 14`, “mean fluorescence intensity” read 395 a.u.
`2'F-ANA at 6 9 10`: “mean fluorescence intensity” 147 a.u.
For `2'F-ANA at 1 3 4 6 9 14`, “mean fluorescence intensity” read 78.1 a.u.
For `2'F-ANA at 1 2 4 5 7 10 13`, “mean fluorescence intensity” read 42 a.u.
`2'F-ANA at 3 6 8 9 12 13 14 15` — result for “mean fluorescence intensity”: 553 a.u.
Under “mean fluorescence intensity”, `2'F-ANA at 1 2 5 7 9 10 11 13` is recorded as 48.4 a.u.

Set 3
Target: Ras GTPase-activating protein-binding protein 1, full length (G3BP1, Homo sapiens, UniProt Q13283)
UniProt Q13283, sequence (whole entry, looked up): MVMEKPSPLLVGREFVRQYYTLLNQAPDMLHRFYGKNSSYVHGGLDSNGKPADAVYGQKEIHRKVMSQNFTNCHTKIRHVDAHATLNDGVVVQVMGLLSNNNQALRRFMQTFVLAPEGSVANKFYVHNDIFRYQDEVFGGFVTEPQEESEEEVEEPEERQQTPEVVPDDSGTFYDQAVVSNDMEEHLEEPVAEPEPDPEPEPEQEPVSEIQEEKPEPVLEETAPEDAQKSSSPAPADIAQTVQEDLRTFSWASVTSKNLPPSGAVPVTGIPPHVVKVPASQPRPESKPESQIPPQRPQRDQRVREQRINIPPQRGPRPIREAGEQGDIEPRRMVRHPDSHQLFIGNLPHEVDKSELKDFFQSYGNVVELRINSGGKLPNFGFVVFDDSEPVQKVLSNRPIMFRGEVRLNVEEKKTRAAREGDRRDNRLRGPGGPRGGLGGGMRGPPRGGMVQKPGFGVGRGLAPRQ
Method: RNA Bind-n-Seq
Molecule type: RNA
Sample: in vitro
Concentration: 200 nM
Setting: whole 134-nt RNA, ends assumed
Together with: 150 mM LiCl
Reference: input library
Reading: higher = stronger binding
Each molecule: 7-deaza-guanosine replaces G
Constant ends, left off below: GGGAGUUCUACAGUCCGACGAUC … UGGAAUUCUCGGGUGUCAAGG
`AGUCCUGUGCUACACAUCGUAUGUACCGAAUCGGGAAAAAGGGUUUUUGGGUUUGGGAAAGUAUUAUGUUACGCCGUUCGGAUCUGCACU` has a log2 enrichment of -2.07.
The log2 enrichment of `ACAGGAAGUAAAAACAAAUGGAAAUGCUUCGGAUAGUGGCAGGGGUGGGGGUUGCUAAGGAAAGGGUGGGAUGGGAGUGGGUAAAGAGUU` is reported as -0.124.
For `GCUCGCCCGAGCUCAGAGGUGAUCAAAGACGCCAACUUGUACAUCAGCGGGCUCCCGCGGACCAUGACCCAGAAGGACGUAGAAGACAUG`, the log2 enrichment was -1.47.
The log2 enrichment of `AGUCCUGUGCUACACAUCGUAUGUACCGAAUCGGGUUUUUGGUUUUUGGGGUUUUUGGAAAGUAUUAUGUUACGCCGUUCGGAUCUGCAC` is reported as -0.28.
`CCUCAAGUCCUGUGCUACACAUCGUAUGUACCGAAUCGGUGGGGUGGGUGGGGAAAGUAUUAUGUUACGCCGUUCGGAUCUGCACUUCCA` has a log2 enrichment of 0.248.
The log2 enrichment of `UCAAGUCCUGUGCUACACAUCGUAUGUACCGAAUCGUGUGUGUGUGUGUGUGUGAAAGUAUUAUGUUACGCCGUUCGGAUCUGCACUUCC` is reported as -0.708.
The log2 enrichment of `CAAGUCCUGUGCUACACAUCGUAUGUACCGAAUCGGGUUUGGGUUUUUGGGAGGGAAAGUAUUAUGUUACGCCGUUCGGAUCUGCACUUC` is reported as 0.229.
The log2 enrichment of `UGCCUGCUCCGGGCCCCGUGCUGGCGCCUACGCACCUGCAGACAGAGCUGGUGCUGAGGUGCCAGAAGGAGACCGACUGUGACCUCUGUC` is reported as -0.605.

Set 4
Target: Interferon regulatory factor 5, full length, phosphomimetic (IRF5, Homo sapiens, UniProt Q13568-2, residues 1-514, K96S/S451D/S453D/S456D/S462D)
Method: protein-binding microarray
Molecule type: double-stranded DNA, one strand shown
Sample: in vitro
Concentration: 250 nM
Setting: 60-bp whole probe
Together with: salmon DNA 0.4 mg/ml
Reference: random background probes
Reading: higher = stronger binding
Constant ends, left off below: GCCTAGCAC … GTCTTGATTCGCTTGACGCTGCTG
For `TTAGGACTGCTTTTCCTCTAGTGCTAG`, the log fluorescence was 0.0581 z-score.
`AATTTTTTTTCTAACTAAAAGTGCTAG` gave a log fluorescence of 1.28 z-score.
The log fluorescence of `GACGGTATCGGACTGGCGACGTGCTAG` is reported as 0.98 z-score.
For `GACGGACTGGGGTTTCGGGAGGTGCTA`, the log fluorescence was 1.07 z-score.
For `TATTTTCCTTTAAACTTTTAGTGCTAG`, the log fluorescence was 2.15 z-score.
With `GACGGTCTCGGTATCGCGACGTGCTAG` the log fluorescence was 0.00403 z-score.
The log fluorescence of `GACGGTACCGGGTTTCGGGACGTGCTA` is reported as 2.12 z-score.
For `TTAGGTATCGGGAATCGGTTAGTGCTA`, the log fluorescence was 2.39 z-score.
The log fluorescence of `TGTGTTGCAGAAACGCCATGGTGCTAG` is reported as -0.0332 z-score.
`GCCTTTTTTTTTTTTTCTGAGTGCTAG` gave a log fluorescence of 0.685 z-score.
`TTAAGTTTCCTACTGCTTTAGTGCTAG` has a log fluorescence of 1.11 z-score.
For `TTAGGTATCGGGTTTCGGTAAGTGCTA`, the log fluorescence was 7.49 z-score.
For `CCGCTTTTTTTTTTTTTTTTGTGCTAG`, the log fluorescence was 0.788 z-score.
`GACGGTATCGGACTGGGTACGTGCTAG` has a log fluorescence of 0.84 z-score.
`GACGATATCAGACTGGAAACGTGCTAG` gave a log fluorescence of 0.692 z-score.
`CGAGTTTCTATTTTCTGAATGTGCTAG` has a log fluorescence of 5.34 z-score.

Repeated from above (set 4):
`TTAAGTTTCCTACTGCTTTAGTGCTAG` has a log fluorescence of 1.11 z-score.
For `TTAGGTATCGGGTTTCGGTAAGTGCTA`, the log fluorescence was 7.49 z-score.
For `CCGCTTTTTTTTTTTTTTTTGTGCTAG`, the log fluorescence was 0.788 z-score.
`GACGGTATCGGACTGGGTACGTGCTAG` has a log fluorescence of 0.84 z-score.
`GACGATATCAGACTGGAAACGTGCTAG` gave a log fluorescence of 0.692 z-score.
`CGAGTTTCTATTTTCTGAATGTGCTAG` has a log fluorescence of 5.34 z-score.
